# Experimental data pooled from the literature.
# Compare with care: the assays were run in different laboratories.
SMILES,assay,system,setting,endpoint,result
O=C(Nc1ccccc1)C1CCN(C(=O)Oc2cccnc2)CC1,adverse event reporting,healthy women,"oral, 100 mg, 9 days",subjects with Overall adverse event,100%
C[C@@H](NC(=O)N1C(=O)[C@H](Cc2ccnc(N)c2)[C@H]1C(=O)O)C1CCCCC1,,healthy adult Chinese volunteers,"continuous intravenous infusion, 1.5 mg/kg/h, 5-day infusion, CTCAE 5.0 grading",incidence of AEs leading to discontinuation,0%
CCCCCCCCCCCCCCCC(=O)N[C@@H](CCC(=O)NCCCC[C@H](NC(=O)[C@H](CC(=O)O)NC(=O)[C@H](CO)NC(=O)[C@@H](NC(=O)[C@H](Cc1ccccc1)NC(=O)[C@@H](NC(=O)CNC(=O)[C@H](CCC(N)=O)NC(=O)[C@H](CO)NC(=O)[C@@H](N)Cc1c[nH]cn1)[C@@H](C)O)[C@@H](C)O)C(=O)N[C@@H](CO)C(=O)N[C@@H](CCC(=O)O)C(=O)N[C@@H](Cc1ccc(O)cc1)C(=O)N[C@@H](CC(C)C)C(=O)N[C@@H](CC(=O)O)C(=O)N[C@@H](CO)C(=O)N[C@@H](CCC(=O)O)C(=O)N[C@@H](CCCNC(=N)N)C(=O)N[C@@H](C)C(=O)N[C@@H](CCCNC(=N)N)C(=O)N[C@@H](CC(=O)O)C(=O)N[C@@H](Cc1ccccc1)C(=O)N[C@H](C(=O)N[C@@H](C)C(=O)N[C@@H](Cc1c[nH]c2ccccc12)C(=O)N[C@@H](CC(C)C)C(=O)N[C@@H](CCC(=O)O)C(=O)N[C@@H](C)C(=O)NCC(=O)NCC(=O)O)C(C)C)C(=O)O,measured: decreased appetite,"human, CrCl ≥20 to <30 mL/min","subcutaneous, 100 µg single dose",treatment-related adverse events,0%
O=C1Nc2cc3[nH]nc(-c4ccncc4)c3cc2CN1Cc1ccccc1,CTCAE v4.03,advanced solid tumour patients,"intravenous, 3.6 mg/kg",patients with macular oedema,0%
CC1(C)C(=O)N(c2ccc(C#N)c(C(F)(F)F)c2)C(=S)N1c1ccc(C(N)=O)c(F)c1,population PK base model,human,,intercompartmental clearance,9.94 L/h
Cn1c(-c2ccc(C(N)=O)cc2F)nnc1C(C)(C)Oc1c(F)cc(Cl)cc1F,,human,"oral, 60 mg, single ascending dose",vessel puncture site pain,0%
COc1cc2c(Oc3ccc4[nH]c(C)cc4c3F)ccnc2cc1OCC1(N)CC1,,paediatric recurrent refractory sarcoma,10 mg,grade 1 or 2 Leukopenia,25%
COc1ccc([C@@H](O)c2cc(-c3ncnc4cc(N5CCOCC5)ccc34)c(F)cc2Cl)nn1,,"patients, advanced solid tumours","oral, 300 mg twice daily, treatment-emergent, added: avelumab",hyponatraemia incidence,4%
CC[C@H](C)[C@@H]1NC(=O)[C@H](Cc2ccc(O)cc2)NC(=O)[C@H](CC(=O)O)NC(=O)CCc2cccc3c2Oc2c(cccc2-3)CCNC(=O)[C@H](CC(=O)O)NC(=O)[C@H](CC(=O)O)NC(=O)[C@H](CCCCN)NC1=O,,mouse,4 h,metabolised,> 50%
C=CC(=O)Nc1cc(Nc2nccc(Nc3cc(Cl)c(F)cc3C(C)(C)O)n2)c(OC)cc1N1CC[C@@H](N(C)C)C1,treatment-emergent adverse events,human,"oral, 400 mg, phase I clinical trial",incidence of weight decreased,30%
CCN(CCO)CCCC(C)Nc1ccnc2cc(Cl)ccc12 (stereo not drawn),,"human, newly diagnosed glioblastoma","oral, 400 mg/dose, muscle weakness grade 1, with RT and TMZ",patients with adverse event,14%
C[C@]1(CO)Cc2ncn(-c3ccc(C#N)c(Cl)c3)c2C(=O)O1,,"healthy Japanese adults, plasma",80 mg single dose,Cmax,3.52 µM
CC[C@H](C)CCCCC(=O)N[C@@H](CCN)C(=O)N[C@H](C(=O)N[C@@H](CCN)C(=O)N[C@H]1CCNC(=O)[C@H]([C@@H](C)O)NC(=O)[C@H](CCN)NC(=O)[C@H](CCN)NC(=O)[C@H](CC(C)C)NC(=O)[C@@H](Cc2ccccc2)NC(=O)[C@H](CCN)NC1=O)[C@@H](C)O,,"critically ill patients, low initial AUC group, plasma","dose not given, median",AUC(0-24 h) at steady state,41800 ng·h/mL
N#CCNC(=O)c1ccc(-c2ccnc(Nc3ccc(N4CCOCC4=O)cc3)n2)cc1,"population PK model, NONMEM",human,"metabolite of momelotinib, typical value, final model",CLm/F,24.9 L/h
CCc1ccc(CC/C=C/c2ccc3c(c2)C(=O)CC3)cc1,,"Sprague-Dawley rat, male, serum","oral, 450 mg/kg/day, 14 days",total protein,51.5 g/L
